Assay results pooled from the literature.
A part holds a random share of what one study measured.

Block 1 — method: universal PBM; molecule type: double-stranded DNA, one strand shown; medium: in vitro; concentration: not given; reading: higher = stronger binding
Target: Sal-like protein 4, full length isoform B (SALL4, Homo sapiens, UniProt Q9UJQ4-2, residues 1-616)
Notes: 8-mer, flanks averaged, mean of replicates
| Strand | E-score |
| --- | --- |
| GTCGTGAA | -0.185 |
| ACCCAGGC | -0.306 |
| AAACTTGG | 0.0615 |
| GTTGGCTA | -0.121 |
| GTGGTTAA | 0.0522 |
| ATTGAAGC | 0.215 |
| AAGGTAGA | 0.172 |
| ATCGGTTC | -0.171 |
| AAACACTT | 0.0492 |
| AGGTACCG | -0.255 |
| ACCATCCT | 0.161 |
| ATTGTTCA | 0.243 |
| ATACTGGG | -0.044 |
| AGAGGTAC | -0.176 |
| GAGCGAAC | -0.172 |
| CGAATAGA | -0.184 |
| CGGGACCG | -0.291 |
| AGAAGTAC | 0.0343 |

Block 2 — method: RNA Bind-n-Seq; molecule type: RNA; medium: in vitro; concentration: 200 nM; notes: whole 134-nt RNA, ends assumed; together with: 150 mM LiCl; reference: input library; reading: higher = stronger binding; library: 7-deaza-guanosine replaces G
Target: Fragile X messenger ribonucleoprotein 1, C-terminal low-complexity region (Fmr1, Mus musculus, UniProt P35922)
| Strand | log2 enrichment |
| --- | --- |
| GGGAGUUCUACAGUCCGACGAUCAAGUCCUGUGCUACACAUCGUAUGUACCGAAUCGGUUUUUGGUUUUUGGAAAAAGGAAAGUAUUAUGUUACGCCGUUCGGAUCUGCACUUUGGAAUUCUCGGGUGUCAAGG | -2.17 |
| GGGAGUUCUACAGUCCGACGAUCGUCCUGUGCUACACAUCGUAUGUACCGAAUCAAACCCAAAUUUUUAAACCCCCCCAAAAAAGUAUUAUGUUACGCCGUUCGGAUCUGCACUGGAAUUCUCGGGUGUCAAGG | 1.45 |
| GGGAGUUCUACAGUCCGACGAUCCUGUGCUACACAUCGUAUGUACCGAAUCGGGCCCCCCGGGGCCCCCCGGGGCCCCCCGGGGAAAGUAUUAUGUUACGCCGUUCGGAUCUGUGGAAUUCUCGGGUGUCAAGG | -2.89 |
| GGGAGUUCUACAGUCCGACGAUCUCCUGUGCUACACAUCGUAUGUACCGAAUCGGGGCCCCCGGGGCCCCCGGGGCCCCCGGAAAGUAUUAUGUUACGCCGUUCGGAUCUGCAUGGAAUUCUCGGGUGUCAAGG | 0.955 |
| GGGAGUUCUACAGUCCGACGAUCCAAGUCCUGUGCUACACAUCGUAUGUACCGAAUCGGUUUUGGUUUUGGGUUUUGGAAAGUAUUAUGUUACGCCGUUCGGAUCUGCACUUCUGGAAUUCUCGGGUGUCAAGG | -1.68 |
| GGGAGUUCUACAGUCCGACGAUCAAGAUUUAGAGAUGAAUUAAAUUUAAUUAGGGGUUGCUAAGAAGCGAGCACUGACCAGAUAAGAAUGCUGGUUUUCCUAAAUGCAGUGAAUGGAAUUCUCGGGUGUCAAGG | -1.77 |
| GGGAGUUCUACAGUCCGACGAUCGAAGAUUGGCUUAAAAUGGCUACUGUGAUGGGAACAGUGUCUUAGGGAGAUGCAGCUUGGACUUGAGGUAAAUUGAAUACUUUACAACUGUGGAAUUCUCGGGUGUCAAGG | 1.03 |
| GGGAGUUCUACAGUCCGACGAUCUGUGAACUUGUAUGUGAAGAAUCUGGACGACUCCAUUGAUGACGACAAACUGAGGAAAGAGUUCUCUCCCUAUGGAGUAAUUACCAGUGCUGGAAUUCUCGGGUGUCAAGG | 0.881 |
| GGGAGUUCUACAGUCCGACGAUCCCUCAAGUCCUGUGCUACACAUCGUAUGUACCGAAUCGGUUGGGUUGGUUGGAAAGUAUUAUGUUACGCCGUUCGGAUCUGCACUUCCAGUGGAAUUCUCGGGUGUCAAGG | -0.204 |
| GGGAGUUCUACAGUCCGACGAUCACCAUGCAGGUGGGCAUCUUUGGGAAGUGGGGCAAGGGGGGGAUAGGGAGAAAGGUAACACUUUGGGAACAGGUGGUCCCAGGUCGUUUCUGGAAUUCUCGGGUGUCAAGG | 0.261 |
| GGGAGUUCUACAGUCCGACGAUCUGAAUGCUGAGAAUGUUGCUGGUCACCAGAUUGCCUCUGAAACACAGAUCCUUGAGGGCUCUUUGGGAAUAUCUGUAAAGUCACACUGCAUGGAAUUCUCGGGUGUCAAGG | 0.164 |

Block 3 — method: protein-binding microarray; molecule type: hairpin DNA; medium: in vitro; concentration: not given; reference: not given; reading: higher = stronger binding; shared flanks, not repeated: GAGGCC … GGCCTCACACTCTTTCCCTACACG
Target: Signal transducer and activator of transcription 1-alpha/beta, full length (STAT1, Homo sapiens, UniProt P42224, residues 1-750)
UniProt P42224, sequence (whole entry, looked up): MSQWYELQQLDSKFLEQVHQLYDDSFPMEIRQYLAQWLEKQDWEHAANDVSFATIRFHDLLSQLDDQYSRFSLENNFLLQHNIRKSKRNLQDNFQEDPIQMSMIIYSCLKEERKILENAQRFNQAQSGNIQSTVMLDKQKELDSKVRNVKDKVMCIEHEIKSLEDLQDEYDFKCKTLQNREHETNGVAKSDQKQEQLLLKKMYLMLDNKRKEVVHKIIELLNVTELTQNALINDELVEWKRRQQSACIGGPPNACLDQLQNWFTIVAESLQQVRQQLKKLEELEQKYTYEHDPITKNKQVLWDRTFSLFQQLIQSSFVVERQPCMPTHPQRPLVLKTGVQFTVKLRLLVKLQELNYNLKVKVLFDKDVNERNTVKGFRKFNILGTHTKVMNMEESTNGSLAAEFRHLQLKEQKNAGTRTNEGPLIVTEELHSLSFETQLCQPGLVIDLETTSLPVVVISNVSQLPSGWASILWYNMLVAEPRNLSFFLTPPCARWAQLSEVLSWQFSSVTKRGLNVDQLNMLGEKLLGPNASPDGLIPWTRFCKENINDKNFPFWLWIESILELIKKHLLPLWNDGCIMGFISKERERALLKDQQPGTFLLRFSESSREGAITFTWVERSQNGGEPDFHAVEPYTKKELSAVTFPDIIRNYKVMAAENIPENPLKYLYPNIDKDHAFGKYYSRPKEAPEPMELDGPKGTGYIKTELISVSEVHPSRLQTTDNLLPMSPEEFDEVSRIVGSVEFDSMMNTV
Notes: whole hairpin DNA, median over replicate spots
| Strand | median fluorescence |
| --- | --- |
| TTTCCCCCAAGCCTCCTGGCTTGGGGGAAA | 914 a.u. |
| TTTCCCGGCTGCCTCCTGGCAGCCGGGAAA | 936 a.u. |
| TTTCCCGCGAGCCTCCTGGCTCGCGGGAAA (5mC at 28) | 893 a.u. |
| TTTCCCCTAAGCCTCCTGGCTTAGGGGAAA | 1350 a.u. |
| TTTCCGGGAAGCCTCCTGGCTTCCCGGAAA (5mC at 11 31) | 3290 a.u. |
| TCACCCGGAAGCCTCCTGGCTTCCGGGTGA (5mC at 8) | 1730 a.u. |
| CCTCCCGGAAGCCTCCTGGCTTCCGGGAGG (5mC at 7) | 1470 a.u. |
| CGTCCCGGAAGCCTCCTGGCTTCCGGGACG | 1110 a.u. |
| TTCCCCGGAAGCCTCCTGGCTTCCGGGGAA (5mC at 9) | 2000 a.u. |
| TTTCGCGGAAGCCTCCTGGCTTCCGCGAAA (5mC at 32) | 1550 a.u. |
| TTTCCCCCAAGCCTCCTGGCTTGGGGGAAA (5mC at 13) | 886 a.u. |
| TTTCCCCGAAGCCTCCTGGCTTCGGGGAAA (5mC at 29) | 3060 a.u. |
| TTTCCCGCGAGCCTCCTGGCTCGCGGGAAA | 941 a.u. |
| TTCTCCGGAAGCCTCCTGGCTTCCGGAGAA (5mC at 9) | 1270 a.u. |
| TTTCCCGCCAGCCTCCTGGCTGGCGGGAAA | 996 a.u. |
| TTTCCCGGAAGCCTCCTGGCTTCCGGGAAA (5mC at 12 30) | 3000 a.u. |
| TTTCCCGGCAGCCTCCTGGCTGCCGGGAAA | 2730 a.u. |
| TCGCCCGGAAGCCTCCTGGCTTCCGGGCGA (5mC at 34) | 972 a.u. |
| TTTCCCGGAAGCCTCCTGGCTTCCGGGAAA (5mC at 29) | 11300 a.u. |
| TTTCCCGGACGCCTCCTGGCGTCCGGGAAA (5mC at 16) | 1090 a.u. |
| TTTCCCTGAAGCCTCCTGGCTTCAGGGAAA | 1200 a.u. |
| TTTCCCGGAAGCCTCCTGGCTTCCGGGAAA (5mC at 30) | 11900 a.u. |
| CCTCCCGGAAGCCTCCTGGCTTCCGGGAGG | 1220 a.u. |
| TTTCCCGCTAGCCTCCTGGCTAGCGGGAAA (5mC at 14) | 1070 a.u. |

Block 4 — method: protein binding microarray; molecule type: double-stranded DNA, one strand shown; medium: in vitro; concentration: not given; reference: not given; reading: higher = stronger binding
Target: Histone acetyltransferase KAT6A, both winged helices, GST fusion (KAT6A, Homo sapiens, UniProt Q92794, residues 1-181)
Notes: 8-mer, flanks averaged, mean of 2 arrays, mostly near background
Construct (chain): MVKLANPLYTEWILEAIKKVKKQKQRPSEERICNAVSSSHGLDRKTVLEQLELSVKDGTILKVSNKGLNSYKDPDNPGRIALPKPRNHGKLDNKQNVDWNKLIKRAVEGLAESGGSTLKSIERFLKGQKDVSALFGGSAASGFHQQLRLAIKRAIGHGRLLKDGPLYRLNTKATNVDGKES
| Strand | E-score |
| --- | --- |
| GTGTGACA | -0.0058 |
| AACCTTTA | -0.187 |
| ACGGCCGT | 0.357 |
| TCGATACA | -0.0955 |
| AACTTTGC | -0.00054 |
| ATTTACCG | 0.13 |
| GCCTTCGC | 0.093 |
| ACCGCATG | 0.24 |
| AAATGTGA | -0.0847 |
| GAGCGGCC | 0.326 |
| GCACGAAC | 0.0435 |
| GATATATC | 0.109 |
| ACATCTCC | -0.0485 |
| ACAGTCGG | 0.135 |
| TGCGCGCA | 0.354 |
| AGTCGTTA | -0.113 |
| AATCTTTG | -0.219 |
| AGAGTCAA | -0.0566 |
| ATTGCTAA | -0.0935 |
| ACTGTTGG | -0.172 |
| GCGATAAC | 0.0703 |
| CTGGGCCC | -0.122 |

Block 5 — method: RNA Bind-n-Seq; molecule type: RNA; medium: in vitro; concentration: not given; reference: input RNA pool; reading: higher = stronger binding
Target: RING finger protein unkempt homolog, zinc fingers 1-6, GST-SBP tag (UNK, Homo sapiens, UniProt Q9C0B0, residues 30-357)
UniProt Q9C0B0, sequence (30-357, looked up): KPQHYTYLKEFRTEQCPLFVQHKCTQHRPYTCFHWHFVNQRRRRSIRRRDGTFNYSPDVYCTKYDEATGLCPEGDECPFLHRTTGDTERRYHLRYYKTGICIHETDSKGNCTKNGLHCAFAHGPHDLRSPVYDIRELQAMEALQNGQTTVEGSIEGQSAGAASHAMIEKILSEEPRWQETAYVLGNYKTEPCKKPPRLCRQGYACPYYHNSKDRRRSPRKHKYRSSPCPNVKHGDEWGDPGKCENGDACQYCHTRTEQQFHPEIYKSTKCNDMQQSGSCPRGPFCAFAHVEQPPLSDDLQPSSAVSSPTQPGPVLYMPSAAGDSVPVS
Notes: RNA with constant flanks, human and mouse sites, ends assumed
| Strand | bound/input enrichment [ratio] |
| --- | --- |
| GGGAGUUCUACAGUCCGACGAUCGGUGCAUGGAACAUGAAUUCUUAACAGAGAUUUCAGAUUUCCUUGUCUUUGCUAAAUACAUAGUAUGAAACCCCUUAAUUUUUCUUGUUUAAUGAAUGGAGAACACAUGAGAAAAUCAGACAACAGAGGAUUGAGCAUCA | 0.315 |
| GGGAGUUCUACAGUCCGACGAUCGACACUCUCAUCAAGACCUUUGUGCGCUCGCAGACCACCCAAGUGCAUGAUGGGAAAGGUAUUAGAUUUACUGCUAAUGAGGACAUUCGUCCGGAAAAGGGGUCUGGUGUGGACGAUCCUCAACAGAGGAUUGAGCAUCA | 0.319 |
| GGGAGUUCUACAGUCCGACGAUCAAGAACAUUCGGAUUGUGGUGAUGAACAAUCUUUUACCAAGAUCGGUAAAAAUGCAUAUCAAAUAUGACCUCAAAGGCUCAACCUACAAACGGCGGGCUUCCCAGAAAGAGCGAGAGAAGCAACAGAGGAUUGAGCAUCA | 0.158 |
| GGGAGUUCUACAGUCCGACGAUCGAAUUCCACUCUGUGGUCCACACCCUCUUGGAGUGGCUGGCAGAAGCAGAGCAAACCCUGCGUUUCCAUGGUGCUCUCCCAGAUGAUGAGGAUGCUCUCCGGACUCUCAUUGAGCAACAUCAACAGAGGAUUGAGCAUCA | 0.137 |
| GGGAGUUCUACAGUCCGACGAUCGUGGCUUCAUUUUCUUUGAAUUGAAAUGAAAUACAGAUUUUUUUUUUGUAUGACUUUUGCUAGCUAUAACUACUUCAACUAAUAAGAAAGAACAGCUUUAAGCCAAAACCAAAGGUCAUUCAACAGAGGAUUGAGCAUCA | 0.483 |
| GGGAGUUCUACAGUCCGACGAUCUAAAAAAUCAAGCUAUGUACUUAUUUUCUAUAUUUGGGUGUGUUAAAUUGAGGAUUAGAAAAAUCCACAUAAUCACUGAUAAAGCAUUGAAACAGAAUAACCCAAGGGUAGUGUACCGAUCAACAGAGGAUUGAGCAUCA | 0.241 |
| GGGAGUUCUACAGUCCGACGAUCUGGAGUGGAGGCUGAGCCCUCUUUCCUUGGCUUCCAUUUAAAAUGAACUUCACAACAUUCUAGCUAUUGAGGGAUGACAAAAGGAACCCAGAAAAGUGUGUAGGAAAUUACAAGCAGGUUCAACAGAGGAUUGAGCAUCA | 1.01 |
| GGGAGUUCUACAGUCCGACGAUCACCGCCAUCUACUGCUUCCUACGCUGCAUGGAGCCAGACCCUGAGAUCCCUUCUGCCUUCAAUAGCCUCCAAAGGACUCUCAUUUAUUCCAUCUCACUUGGUGGGGACACAGACACCAUUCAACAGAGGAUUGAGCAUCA | 0.306 |
| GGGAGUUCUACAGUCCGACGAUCUGCGGCUGGCUCUAGGCGAUGCCGAGCAGCUCGGACACGGCGCUGGGGGGAGGCGGGGGCCUGAGCUGGGCGGAGAAGAAGUUGGAGGAACGCCGCAAGCGGAGGCGAUUCCUGUCCCCUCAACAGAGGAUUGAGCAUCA | 0.19 |
| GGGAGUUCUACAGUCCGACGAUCACCACUCAACAAACAGUCCCCACCACACCUAUCUCCUUAGGCAAGACUUUGCCUCUCUCCUAGUCCUGAGUAUAAAUCCUGUGCAUAGAUUCCUCUAGAAAGGCAUCAAAAGGCUCAACACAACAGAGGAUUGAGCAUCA | 1.34 |
| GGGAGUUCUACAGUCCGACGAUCAAAGAGCAUUGGAAUCCGGCCAUUGUGGCAUUGGUGUACAACGUGUUGAAGGCAUUUAUGGAAAUGAACAGCACUAUGUUUGAUGAGCUGACAGCCACAUACAAGUCAGAUCGUCAGCGUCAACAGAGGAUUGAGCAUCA | 0.134 |
